{"data": "Published values of several laboratories", "note": "Every numbered part comes from another study and shows a few of its results, in no order."}
{"data": "Sample 1", "target": "Histone acetyltransferase KAT6A, both winged helices, GST fusion (KAT6A, Homo sapiens, UniProt Q92794, residues 1-181)", "technique": "protein binding microarray", "molecule type": "double-stranded DNA, one strand shown", "matrix": "in vitro", "tested at": "not given", "setting": "8-mer, flanks averaged, mean of 2 arrays, mostly near background", "relative to": "not given", "reading": "higher = stronger binding", "Target sequence (chain)": "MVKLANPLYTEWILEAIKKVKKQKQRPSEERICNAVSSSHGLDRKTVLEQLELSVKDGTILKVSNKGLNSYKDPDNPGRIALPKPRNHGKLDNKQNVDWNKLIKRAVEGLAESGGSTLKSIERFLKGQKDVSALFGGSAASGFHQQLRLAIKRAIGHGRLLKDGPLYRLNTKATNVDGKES"}
{"Strand": "GCGCCCAC", "E-score": 0.0983}
{"Strand": "GTGCCTCA", "E-score": -0.0383}
{"Strand": "CGAGGAAG", "E-score": -0.0661}
{"Strand": "AACAACAA", "E-score": -0.195}
{"Strand": "ACCCCTTA", "E-score": -0.209}
{"Strand": "CTTTCGTA", "E-score": -0.0526}
{"Strand": "GCTTATAC", "E-score": 0.103}
{"Strand": "AAGACCCC", "E-score": -0.0386}
{"data": "Sample 2", "target": "RING finger protein unkempt homolog, zinc fingers 1-6, GST-SBP tag (UNK, Homo sapiens, UniProt Q9C0B0, residues 30-357)", "technique": "RNA Bind-n-Seq", "molecule type": "RNA", "matrix": "in vitro", "tested at": "not given", "setting": "RNA with constant flanks, ends assumed", "relative to": "input RNA pool", "reading": "higher = stronger binding", "constant ends, left off below": "GGGAGUUCUACAGUCCGACGAUC … CAACAGAGGAUUGAGCAUCA", "UniProt Q9C0B0, sequence (30-357, looked up)": "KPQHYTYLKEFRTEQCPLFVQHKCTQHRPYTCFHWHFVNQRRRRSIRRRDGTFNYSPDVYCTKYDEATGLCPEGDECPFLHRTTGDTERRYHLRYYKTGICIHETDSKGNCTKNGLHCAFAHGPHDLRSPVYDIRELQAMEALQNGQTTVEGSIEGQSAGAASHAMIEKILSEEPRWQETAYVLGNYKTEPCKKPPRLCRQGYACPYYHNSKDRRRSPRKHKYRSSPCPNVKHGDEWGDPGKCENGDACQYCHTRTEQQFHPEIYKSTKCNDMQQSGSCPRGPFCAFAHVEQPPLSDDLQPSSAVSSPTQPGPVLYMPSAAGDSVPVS"}
{"Strand": "UUCGGGAAAAUAACCAGUUAAACCAGCUACUCAAGGCUGCUCACCAUACGGCUCUAACAGAUCCGGGGCUAAAACGAUUACUGACUUUCCUUGAGUAGUUUUUAUCUGAAAUCAAUUAAA", "bound/input enrichment [ratio]": 0.444}
{"Strand": "CCUCUCCCUCCAUCCCUCAAAAGAUCUUUAUGCAUUUCCCACUACUCCCUUACUGUCUUUCCGCAUUCAGAGAAAAAGCCAACUUGCUUAAAGAGGAAUCACUUAAAAGGUAGGCAUAUC", "bound/input enrichment [ratio]": 0.585}
{"Strand": "GACAUUUCAAAAACAGGAGAAUAUUUACGAGUUAAACUACCACUAAAUCCAACUGCCCGGGAAUUUCAACCAGAUGUAAAGUCUGAAGCACUGUCUGAGGAUGUGAAGUCCAUACCAGGA", "bound/input enrichment [ratio]": 0.139}
{"Strand": "AUCAUUGAAGCAUUCUAUGGAGGCUCCCAUAAACAGCUGGUGGAUCUUCUUCAAGAAGAGUCCGGAGACUGUGUCGUUUAUACCCUUCCUGCAAAGAAAUGGCAUUGGAGAGCCCGGACA", "bound/input enrichment [ratio]": 0.127}
{"Strand": "UUGUAGAUGGCAUUAUUUGGCUCAGAUUCAUCGUGCCUUGGGCAGAAUGAGGAAAUGUGUAUCCGACGCCUAACUACUGAGGUUCAUACUGAUUUGGUUGUCUUUGAUGGCUGUGACAUG", "bound/input enrichment [ratio]": 0.228}
{"Strand": "UUACUGCACGUCAGUUUUUAUAAGGCACUUCAAGUAGUUUUGUGGAAAGAGAUGAGGUUUCCGUCCGAAUACAAUUGCCUUUUAAUUCAUGUUUUAAGAAAUUAAUGUUAGAAGUAAAAG", "bound/input enrichment [ratio]": 0.522}
{"Strand": "UAUGGUGGGGUUGGUAAUUCAUCGGUUUCUGGUCAUGGCAUUCUCCCAAGCUAUCAGGAACCCGCCGAAGAUCGUUUCAGGAAACCUCAUGCUUUUGCUGUACCUGGACAGUCAUAUCAG", "bound/input enrichment [ratio]": 0.367}
{"data": "Sample 3", "target": "Interferon regulatory factor 7, full length, phosphomimetic (IRF7, Homo sapiens, UniProt Q92985, residues 1-503, S101K/S471D/S472D/S475D/S476D/S477D/S483D/S484D/S487D)", "technique": "protein-binding microarray", "molecule type": "double-stranded DNA, one strand shown", "matrix": "in vitro", "tested at": "250 nM", "setting": "60-bp whole probe", "together with": "salmon DNA 0.4 mg/ml", "relative to": "random background probes", "reading": "higher = stronger binding", "Construct (chain)": "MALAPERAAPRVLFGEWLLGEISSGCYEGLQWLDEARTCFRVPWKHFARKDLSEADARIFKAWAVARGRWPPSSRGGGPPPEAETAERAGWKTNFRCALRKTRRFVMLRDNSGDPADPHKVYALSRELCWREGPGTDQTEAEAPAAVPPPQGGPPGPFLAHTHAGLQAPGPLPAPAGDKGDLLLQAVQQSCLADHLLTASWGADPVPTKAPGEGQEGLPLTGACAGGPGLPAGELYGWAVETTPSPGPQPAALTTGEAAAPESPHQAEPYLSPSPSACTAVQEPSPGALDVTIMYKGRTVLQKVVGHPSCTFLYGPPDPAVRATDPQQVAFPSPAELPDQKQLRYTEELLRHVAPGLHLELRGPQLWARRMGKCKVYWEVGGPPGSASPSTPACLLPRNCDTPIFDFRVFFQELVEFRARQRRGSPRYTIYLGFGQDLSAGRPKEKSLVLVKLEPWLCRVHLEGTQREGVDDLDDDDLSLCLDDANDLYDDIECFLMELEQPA"}
{"Strand": "GCCTAGCACGACGGTCTCCTACTGCTGACGTGCTAGGTCTTGATTCGCTTGACGCTGCTG", "log fluorescence [z-score]": -0.373}
{"Strand": "GCCTAGCACGACGGTTTCCTTCTCCTGGCGTGCTAGGTCTTGATTCGCTTGACGCTGCTG", "log fluorescence [z-score]": 2.74}
{"Strand": "GCCTAGCACATTTTTTTGCATTGCTTCTAGTGCTAGGTCTTGATTCGCTTGACGCTGCTG", "log fluorescence [z-score]": 0.749}
{"data": "Mixed results"}
{"Molecule": "PhoQ, residues 284 288 289 292 302 303 ASTSDA", "target": "PhoP, residues 12 14 15 18 19 SMASL (Escherichia coli, UniProt P23836)", "test": "Sort-seq, item: YFP reporter", "test system": "E. coli", "setting": "PhoQ-PhoP variant library, together with: 10 µM Mg2+", "how to read": "relative to: high Mg2+ state, higher = stronger signaling", "measurement": "fold induction", "value": 2.32}
{"note": "Some of these lines once more (sample 1):"}
{"Strand": "ACCCCTTA", "E-score": -0.209}
